Measurements from different studies.
Each numbered part is a random draw from the data of one study; scales do not carry over between parts.
Sequence of UniProt Q9Y5S2 (whole entry, looked up): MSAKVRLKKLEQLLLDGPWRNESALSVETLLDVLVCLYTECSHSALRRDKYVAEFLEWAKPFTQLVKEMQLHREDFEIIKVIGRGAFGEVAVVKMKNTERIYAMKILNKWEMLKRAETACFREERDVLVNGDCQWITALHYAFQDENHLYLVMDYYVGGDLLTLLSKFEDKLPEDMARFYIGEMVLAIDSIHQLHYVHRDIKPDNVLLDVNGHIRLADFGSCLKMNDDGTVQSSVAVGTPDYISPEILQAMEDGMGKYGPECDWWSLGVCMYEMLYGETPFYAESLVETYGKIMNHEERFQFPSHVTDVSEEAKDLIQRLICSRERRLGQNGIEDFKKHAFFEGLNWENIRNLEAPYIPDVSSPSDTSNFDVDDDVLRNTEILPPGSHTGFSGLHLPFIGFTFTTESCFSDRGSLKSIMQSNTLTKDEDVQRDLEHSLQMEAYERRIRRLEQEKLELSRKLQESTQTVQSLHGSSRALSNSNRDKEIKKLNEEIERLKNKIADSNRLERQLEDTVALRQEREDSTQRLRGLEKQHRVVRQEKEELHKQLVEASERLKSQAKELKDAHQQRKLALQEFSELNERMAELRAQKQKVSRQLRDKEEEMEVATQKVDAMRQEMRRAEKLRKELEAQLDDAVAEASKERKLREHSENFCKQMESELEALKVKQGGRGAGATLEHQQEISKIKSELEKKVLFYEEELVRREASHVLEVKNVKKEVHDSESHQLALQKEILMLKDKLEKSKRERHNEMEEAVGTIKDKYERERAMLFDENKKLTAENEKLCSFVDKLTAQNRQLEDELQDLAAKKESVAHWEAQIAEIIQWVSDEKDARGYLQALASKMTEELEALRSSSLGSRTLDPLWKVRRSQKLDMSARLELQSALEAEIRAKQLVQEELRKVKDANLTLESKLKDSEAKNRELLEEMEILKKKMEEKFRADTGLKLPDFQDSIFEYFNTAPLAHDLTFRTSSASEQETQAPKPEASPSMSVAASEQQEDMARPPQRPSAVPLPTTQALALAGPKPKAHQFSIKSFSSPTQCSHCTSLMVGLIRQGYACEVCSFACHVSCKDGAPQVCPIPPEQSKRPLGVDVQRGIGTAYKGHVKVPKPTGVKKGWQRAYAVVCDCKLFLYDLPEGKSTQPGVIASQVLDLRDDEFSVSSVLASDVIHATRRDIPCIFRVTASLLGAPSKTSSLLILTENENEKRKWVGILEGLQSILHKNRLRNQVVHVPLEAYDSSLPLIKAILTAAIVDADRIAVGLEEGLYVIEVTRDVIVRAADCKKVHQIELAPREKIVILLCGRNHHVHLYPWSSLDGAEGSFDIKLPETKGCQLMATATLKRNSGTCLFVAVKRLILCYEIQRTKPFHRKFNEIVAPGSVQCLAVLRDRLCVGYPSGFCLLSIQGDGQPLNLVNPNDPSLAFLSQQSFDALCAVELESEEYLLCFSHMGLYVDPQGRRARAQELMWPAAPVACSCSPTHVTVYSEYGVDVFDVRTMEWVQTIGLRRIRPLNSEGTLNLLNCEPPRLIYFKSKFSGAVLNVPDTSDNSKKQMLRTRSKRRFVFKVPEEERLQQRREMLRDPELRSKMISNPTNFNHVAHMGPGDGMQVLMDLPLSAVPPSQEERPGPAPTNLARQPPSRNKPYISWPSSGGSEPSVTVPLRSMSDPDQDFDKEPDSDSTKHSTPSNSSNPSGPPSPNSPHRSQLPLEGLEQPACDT
Sequence of UniProt Q8N568 (whole entry, looked up): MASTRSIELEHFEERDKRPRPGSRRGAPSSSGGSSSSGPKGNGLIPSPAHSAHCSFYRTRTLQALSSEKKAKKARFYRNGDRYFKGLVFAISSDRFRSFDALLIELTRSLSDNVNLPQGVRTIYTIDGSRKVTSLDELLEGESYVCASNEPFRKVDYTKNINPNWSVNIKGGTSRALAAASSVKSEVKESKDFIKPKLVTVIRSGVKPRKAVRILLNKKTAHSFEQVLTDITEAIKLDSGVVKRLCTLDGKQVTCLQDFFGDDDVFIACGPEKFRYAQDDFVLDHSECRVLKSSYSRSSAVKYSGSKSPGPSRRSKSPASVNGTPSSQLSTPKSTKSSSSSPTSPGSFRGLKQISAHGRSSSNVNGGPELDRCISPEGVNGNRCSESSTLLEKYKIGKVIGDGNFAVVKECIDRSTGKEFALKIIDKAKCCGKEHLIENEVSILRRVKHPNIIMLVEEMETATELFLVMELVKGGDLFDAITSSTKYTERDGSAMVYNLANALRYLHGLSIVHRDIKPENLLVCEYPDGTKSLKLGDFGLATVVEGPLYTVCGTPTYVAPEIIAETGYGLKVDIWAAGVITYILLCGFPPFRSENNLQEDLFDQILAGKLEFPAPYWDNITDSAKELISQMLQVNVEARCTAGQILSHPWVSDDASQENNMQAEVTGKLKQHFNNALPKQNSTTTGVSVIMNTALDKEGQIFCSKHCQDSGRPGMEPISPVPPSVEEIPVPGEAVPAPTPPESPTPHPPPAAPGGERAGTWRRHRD
Sequence of UniProt O75676 (whole entry, looked up): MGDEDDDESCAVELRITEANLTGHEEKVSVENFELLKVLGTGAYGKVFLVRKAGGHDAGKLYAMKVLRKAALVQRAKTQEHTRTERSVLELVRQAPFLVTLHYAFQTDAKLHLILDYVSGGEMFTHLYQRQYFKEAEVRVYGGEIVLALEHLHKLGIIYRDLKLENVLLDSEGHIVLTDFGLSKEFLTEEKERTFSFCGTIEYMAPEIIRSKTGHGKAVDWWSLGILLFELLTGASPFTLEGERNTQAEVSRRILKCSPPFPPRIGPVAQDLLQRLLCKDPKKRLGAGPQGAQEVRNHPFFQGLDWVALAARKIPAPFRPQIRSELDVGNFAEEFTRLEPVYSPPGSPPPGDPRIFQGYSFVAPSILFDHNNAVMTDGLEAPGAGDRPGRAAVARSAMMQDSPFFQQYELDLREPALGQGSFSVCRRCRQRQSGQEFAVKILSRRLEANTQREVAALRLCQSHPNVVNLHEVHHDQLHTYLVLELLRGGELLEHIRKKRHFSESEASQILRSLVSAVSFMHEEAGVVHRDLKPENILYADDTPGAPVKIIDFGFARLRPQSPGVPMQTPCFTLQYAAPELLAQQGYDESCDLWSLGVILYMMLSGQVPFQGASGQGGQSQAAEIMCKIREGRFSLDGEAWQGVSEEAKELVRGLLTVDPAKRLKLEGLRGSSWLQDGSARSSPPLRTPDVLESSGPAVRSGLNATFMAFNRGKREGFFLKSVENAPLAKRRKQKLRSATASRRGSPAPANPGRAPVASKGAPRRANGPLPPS
Sequence of UniProt Q13237 (whole entry, looked up): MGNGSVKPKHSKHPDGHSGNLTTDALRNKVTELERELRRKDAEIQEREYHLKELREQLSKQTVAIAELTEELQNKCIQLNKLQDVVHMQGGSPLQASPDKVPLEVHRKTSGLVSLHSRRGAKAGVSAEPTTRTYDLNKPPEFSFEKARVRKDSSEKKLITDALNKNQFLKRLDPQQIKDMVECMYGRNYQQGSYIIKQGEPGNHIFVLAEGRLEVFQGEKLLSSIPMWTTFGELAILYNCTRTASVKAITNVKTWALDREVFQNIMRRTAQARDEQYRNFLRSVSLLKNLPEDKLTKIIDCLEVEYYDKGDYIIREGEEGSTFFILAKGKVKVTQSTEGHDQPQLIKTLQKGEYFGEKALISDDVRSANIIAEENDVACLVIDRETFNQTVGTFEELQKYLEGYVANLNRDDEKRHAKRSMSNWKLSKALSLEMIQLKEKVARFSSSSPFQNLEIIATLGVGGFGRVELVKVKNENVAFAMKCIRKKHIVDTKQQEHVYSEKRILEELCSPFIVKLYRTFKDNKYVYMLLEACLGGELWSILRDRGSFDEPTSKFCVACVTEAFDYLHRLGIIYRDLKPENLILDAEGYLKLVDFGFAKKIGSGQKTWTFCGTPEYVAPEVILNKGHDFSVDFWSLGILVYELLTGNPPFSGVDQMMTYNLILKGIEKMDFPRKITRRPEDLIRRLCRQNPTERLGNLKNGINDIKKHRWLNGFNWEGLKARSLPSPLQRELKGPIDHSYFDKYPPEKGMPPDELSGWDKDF
Sequence of UniProt O75914 (whole entry, looked up): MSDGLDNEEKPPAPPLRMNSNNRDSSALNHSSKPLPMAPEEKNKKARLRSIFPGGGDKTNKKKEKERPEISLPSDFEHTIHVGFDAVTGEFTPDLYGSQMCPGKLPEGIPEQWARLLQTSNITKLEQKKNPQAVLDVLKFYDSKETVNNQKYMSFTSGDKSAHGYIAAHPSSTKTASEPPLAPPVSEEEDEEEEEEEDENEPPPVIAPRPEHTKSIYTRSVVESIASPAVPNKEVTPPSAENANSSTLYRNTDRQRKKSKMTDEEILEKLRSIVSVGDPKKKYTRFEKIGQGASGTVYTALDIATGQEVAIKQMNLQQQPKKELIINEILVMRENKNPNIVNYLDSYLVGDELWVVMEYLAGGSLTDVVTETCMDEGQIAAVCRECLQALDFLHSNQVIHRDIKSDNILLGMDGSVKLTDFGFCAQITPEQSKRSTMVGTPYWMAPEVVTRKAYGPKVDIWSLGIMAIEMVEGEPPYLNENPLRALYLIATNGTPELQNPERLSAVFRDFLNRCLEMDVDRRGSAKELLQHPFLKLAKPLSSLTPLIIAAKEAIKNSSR

Set 1
SMILES: CN(C)CCCn1cc(C2=C(c3c[nH]c4ccccc34)C(=O)NC2=O)c2ccccc21
Effect on: enzyme activity
Mode: inhibitor
Tested at: 0.5 µM
Reference: control
target | remaining activity
Dual specificity mitogen-activated protein kinase kinase 1 (MAP2K1, Homo sapiens, UniProt Q02750) | 83.6%
Serine/threonine-protein kinase DCLK2 (DCLK2, Homo sapiens, UniProt Q8N568) | 95%
Serine/threonine-protein kinase MRCK beta (CDC42BPB, Homo sapiens, UniProt Q9Y5S2) | 90.8%
MAP/microtubule affinity-regulating kinase 4 (MARK4, Homo sapiens, UniProt Q96L34) | 66.9%
RAC-beta serine/threonine-protein kinase (AKT2, Homo sapiens, UniProt P31751) | 88.7%
Serine/threonine-protein kinase Nek3 (NEK3, Homo sapiens, UniProt P51956) | 110%
Dual specificity protein kinase CLK4 (CLK4, Homo sapiens, UniProt Q9HAZ1) | 44.8%
Serine/threonine-protein kinase PAK 3 (PAK3, Homo sapiens, UniProt O75914) | 92.1%
cGMP-dependent protein kinase 2 (PRKG2, Homo sapiens, UniProt Q13237) | 38.7%
Discoidin domain-containing receptor 2 (DDR2, Homo sapiens, UniProt Q16832) | 111%
Vascular endothelial growth factor receptor 2 (KDR, Homo sapiens, UniProt P35968) | 65.5%
Hepatocyte growth factor receptor (MET, Homo sapiens, UniProt P08581) | 102%
Ribosomal protein S6 kinase alpha-4 (RPS6KA4, Homo sapiens, UniProt O75676) | 34.9%
Rho-associated protein kinase 1 (ROCK1, Homo sapiens, UniProt Q13464) | 92.3%

Set 2
Cell line: mouse MPNST tumor cells
Method: high-content nuclear imaging
Item: cell number
Tested at: 10 µM
Time: 12 h
Notes: mean of 2 replicates
Reference: plate mean
Direction: higher = more cells
Structure (SMILES) | nuclei count [z-score]
Oc1ccc(C2CNCCc3c2cc(O)c(O)c3Cl)cc1 (centres unmarked) | 2.77
CC(C)[C@H](CO)Nc1nc(Nc2cccc(Cl)c2)c2ncn(C(C)C)c2n1 | -1.37
COC1=CC(=O)C[C@@H](C)[C@]12Oc1c(Cl)c(OC)cc(OC)c1C2=O | -1.47
COc1ccc(-n2[nH]c3c4c(ncc3c2=O)CCCCC4)cc1 | 1.65

Set 3
Host: mouse
Medium: microsomes or S9
Tested at: 2 µM
Time: 0.5 h
SMILES | remaining compound [%]
COc1ccc(-c2noc(CC(=O)NCc3ccccc3)c2-c2ccc(OC)cc2)cc1 | 0.652
Cc1ccc(-n2ccc3c(cnc4ccn(-n5cnnc5)c(=O)c43)c2=O)cc1C | > 99.9
CCCn1c(=O)c2sccc2n2c(CCC(=O)Nc3ccc(CC)cc3)nnc12 | 0.103
COC(=O)c1ccc(/C=C(\COc2cccc3ccccc23)CN(CCCN(C)C)C(=O)OC(C)(C)C)cc1 | 5.22
Cc1nc(NC(C)Cc2ccccc2)c(C#N)c2c1COC(C)(C)C2 (centres unmarked) | 3.25

Set 4
Target: 5-hydroxytryptamine receptor 5A (HTR5A, Homo sapiens, UniProt P47898)
Sequence of UniProt P47898 (whole entry, looked up): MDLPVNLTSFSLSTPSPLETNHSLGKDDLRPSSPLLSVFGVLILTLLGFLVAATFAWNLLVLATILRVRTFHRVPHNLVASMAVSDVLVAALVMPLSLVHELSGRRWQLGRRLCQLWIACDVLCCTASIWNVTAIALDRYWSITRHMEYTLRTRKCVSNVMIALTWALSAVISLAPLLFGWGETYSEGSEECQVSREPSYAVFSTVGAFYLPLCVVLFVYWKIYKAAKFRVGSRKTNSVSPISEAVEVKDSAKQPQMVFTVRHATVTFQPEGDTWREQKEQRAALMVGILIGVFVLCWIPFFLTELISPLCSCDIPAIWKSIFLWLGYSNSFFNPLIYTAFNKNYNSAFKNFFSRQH
Effect on: ligand displacement
Tested at: 10 µM
Structure (SMILES) | inhibition [%]
COc1cccc(CNC(=O)c2nc3scc(COCc4ccc(C(=O)O)cc4)c3c(=O)[nH]2)c1 | -11.9
CN1CCN(c2cnc3c(C4CCN(C(=O)c5ccc(OC(F)(F)F)cc5N)CC4)ncnc3c2)CC1 | -1.47
CCC(=O)N[C@H]1CC[C@@H](C(=O)N(C)c2ccc(-c3nc4ccccc4o3)cc2)C1 | -1.85

Set 5
Cell line: HaCaT
Tested at: 100 µM
Time: 60 h
Structure (SMILES) | viability
NCCCC[C@H](N[C@@H](CCc1ccccc1)C(=O)O)C(=O)N1CCC[C@H]1C(=O)O | 126%
O=C(O)CCc1nc(-c2ccccc2)c(-c2ccccc2)o1 | 112%
O=c1cc[nH]c(=O)[nH]1 | 148%
CCOCC(O)COc1ccc(NC(=O)CC[S+](C)C)cc1 (centres unmarked) | 160%
Cc1cn[nH]c1 | 136%
N[C@@H](Cc1ccc(O)c(O)c1)C(=O)O | 71.3%

A few entries again (set 5):
Structure (SMILES) | viability
O=c1cc[nH]c(=O)[nH]1 | 148%
CCOCC(O)COc1ccc(NC(=O)CC[S+](C)C)cc1 (centres unmarked) | 160%
Cc1cn[nH]c1 | 136%
